Measurements from different studies.
A part holds a random share of what one study measured. Changes are numbered by the printed parent chain.

Sample 1 — technique: protein-binding microarray; molecule type: double-stranded DNA, one strand shown; matrix: in vitro; tested at: 2200 nM top; setting: 60-bp whole probe; added: salmon DNA 0.4 mg/ml; baseline: random background probes; reading: higher = stronger binding; measurement: fitted relative affinity; all sequences stand within: GCCTAGCAC … GTCTTGATTCGCTTGACGCTGCTG
Target: Interferon regulatory factor 7, full length, phosphomimetic (IRF7, Homo sapiens, UniProt Q92985, residues 1-503, S471D/S472D/S475D/S476D/S477D/S483D/S484D/S487D)
UniProt Q92985, sequence (whole entry, unmodified, looked up): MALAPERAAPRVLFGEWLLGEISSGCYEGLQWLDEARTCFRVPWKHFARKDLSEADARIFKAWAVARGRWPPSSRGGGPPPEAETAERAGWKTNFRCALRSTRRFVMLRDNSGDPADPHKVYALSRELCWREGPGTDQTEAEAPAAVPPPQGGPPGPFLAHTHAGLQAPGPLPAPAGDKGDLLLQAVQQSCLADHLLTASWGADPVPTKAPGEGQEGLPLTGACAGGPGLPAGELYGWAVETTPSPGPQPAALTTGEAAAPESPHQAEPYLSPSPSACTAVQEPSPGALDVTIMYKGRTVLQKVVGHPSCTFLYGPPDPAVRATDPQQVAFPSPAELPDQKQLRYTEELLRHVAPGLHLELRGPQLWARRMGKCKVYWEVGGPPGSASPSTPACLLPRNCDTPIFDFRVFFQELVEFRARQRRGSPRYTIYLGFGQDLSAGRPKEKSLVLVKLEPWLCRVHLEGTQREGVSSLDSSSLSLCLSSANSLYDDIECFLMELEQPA
TTAGATATCAGTCTGGATTAGTGCTAG: -0.225 z-score
TTAGAACGGAGTCTCGATTAGTGCTAG: -0.158 z-score
AAAGTTTTTCATTTTTTTTCGTGCTAG: 1.24 z-score
TCATAAGTTTCACTCTGCACTGTGCTA: 3.6 z-score
TCAGATATCGGGTTTCGATTAGTGCTA: 2.99 z-score
GTAGGTTCCGGTTTCGGTTAGTGCTAG: 8.83 z-score
GACGATTCCAGTTTCGAGTCGTGCTAG: 6.85 z-score
TTAGGTATCGGATTGGGTTAGTGCTAG: 0.855 z-score

Sample 2 — technique: protein-binding microarray; molecule type: hairpin DNA; matrix: in vitro; tested at: not given; baseline: not given; reading: higher = stronger binding; measurement: median fluorescence
Target: Cellular tumor antigen p53, full length (TP53, Homo sapiens, UniProt P04637, residues 1-393)
Setting: whole hairpin DNA, median over replicate spots
CCACACGTGGTGCGATGCCTTCCTAGGCATCGCACCACGTGTGGACACTC (5mC at 13 31): 5090 a.u.
CCACACGTGGTCGCATGCCTTCCTAGGCATGCGACCACGTGTGGACACTC (5mC at 12 32): 5700 a.u.
CCACACGTGCGGGCATGCCTTCCTAGGCATGCCCGCACGTGTGGACACTC (5mC at 10): 11800 a.u.
CCACACGTGGTGTCATGCCTTCCTAGGCATGACACCACGTGTGGACACTC: 5930 a.u.
CCACACCGGGTGGCATGCCTTCCTAGGCATGCCACCCGGTGTGGACACTC (5mC at 37): 6180 a.u.
CCACACCGGGTGGCATGCCTTCCTAGGCATGCCACCCGGTGTGGACACTC: 6930 a.u.
CCACACCTGGTGGCATGCCTTCCTAGGCATGCCACCAGGTGTGGACACTC (5mC at 7): 6750 a.u.
CGGACATGCCCGCGCATGTCTCCTGACATGCGCGGGCATGTCCGACACTC (5mC at 13 31): 12200 a.u.

Sample 3 — technique: RNA Bind-n-Seq; molecule type: RNA; matrix: in vitro; tested at: not given; setting: RNA with constant flanks, ends assumed; baseline: input RNA pool; reading: higher = stronger binding; measurement: bound/input enrichment
Target: RING finger protein unkempt homolog, zinc fingers 1-6, GST-SBP tag (UNK, Homo sapiens, UniProt Q9C0B0, residues 30-357)
UniProt Q9C0B0, sequence (30-357, looked up): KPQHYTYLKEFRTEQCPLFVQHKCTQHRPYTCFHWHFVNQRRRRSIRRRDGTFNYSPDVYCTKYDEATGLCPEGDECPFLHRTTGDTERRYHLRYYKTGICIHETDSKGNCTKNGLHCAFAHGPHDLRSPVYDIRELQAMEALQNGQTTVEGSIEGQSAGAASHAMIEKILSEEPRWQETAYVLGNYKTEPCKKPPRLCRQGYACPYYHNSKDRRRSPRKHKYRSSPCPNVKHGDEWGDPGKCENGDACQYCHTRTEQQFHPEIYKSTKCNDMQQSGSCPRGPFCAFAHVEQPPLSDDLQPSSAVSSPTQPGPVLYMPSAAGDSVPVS
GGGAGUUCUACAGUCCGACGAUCGUGAUUUUUUCCCCCCCAACUCCGUGUUUCGCUAAGGAAUUAUUUCGCACACGGACCAUUCUCCGCAGUUUCCUCAGUGAUGGAAUAUUCAUGAAUGUGAGUCAUUAUGUAGCCGUCGUACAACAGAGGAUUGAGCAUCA: 0.355 ratio
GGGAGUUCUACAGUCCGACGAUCCUGGACCUCAACUGUGACGGGCAGCUAGAUUUCCAAGAGUUUCUCAACCUCAUUGGUGGCUCCGCUACCGCGUGCCAUGAUUCUUUCAUCCAAACUUCCCAGAAGCGAAUCUAAUCCUCUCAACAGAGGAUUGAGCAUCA: 0.334 ratio
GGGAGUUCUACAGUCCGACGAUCCGGAACUGCCUAGUGGGCGAGAACCAUGUGGUGAAAGUGGCCGACUUUGGUUUAAGCCGACUGAUGACUGGAGAUACCUACACUGCUCAUGCUGGAGCCAAAUUUCCUAUUAAAUGGACACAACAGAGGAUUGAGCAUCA: 0.151 ratio
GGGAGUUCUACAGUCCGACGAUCUCCCAGCACUUUGAUAAAAAGUGUGGACUGGUUGCUUGUAUUUUCCUUAUUCUUUUUAAUCCGUUUUAUUAUGUAUGCUACCAUUCGAACUGAGAGUAUUCGGUGGCUAAUUCCAGGACACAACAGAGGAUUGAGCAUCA: 1.06 ratio
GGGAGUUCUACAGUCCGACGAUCAUUCAUUUUUAAUUUUAAUUUUAUUUUAUACAACGUGUAGACGGUUCCCUGUUCUCUGCAUUCCGAAGUAUACACAGUACAACUGUUAAUUCUGUAAGUAAUUUUUAUAAUUAUGAUGUACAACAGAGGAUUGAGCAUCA: 6.69 ratio
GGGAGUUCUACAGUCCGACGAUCCCUCCUACCAAGGGUCUCCGCAAGGAGGAACGGCCAGGCCCUGGGCCCGGCGAGGUGCGUACCGCUUUCCGAAUCUCCAAUGUCCGAGAGCCCCAUUCACCAGAUGGCAACUUACCCAAUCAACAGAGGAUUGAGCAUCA: 0.128 ratio
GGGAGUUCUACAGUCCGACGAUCGUCAACAAGGUGGAGUUGCUGGUGAUGAAGGCACUCUCGGUGGGGCUGGUGAGAGGCAGCACCGACGAGGUGGACAAGCGGGUUCACAUGACGUGGGUGCAGCCGCGAGUGCUGGAUUUGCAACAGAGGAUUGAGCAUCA: 0.306 ratio
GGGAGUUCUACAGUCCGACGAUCGAGGAAUUUGGUGUUGUCUCAAAUACAAGAUUGAUUGCUGCUACUACUUCUGUAUUAAAAACCCGAUUUUCAUAUGCUUUUCCAAAGGAAUUUCCUUACAGGAUGAAUCAUAUACUAGAACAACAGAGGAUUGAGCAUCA: 0.414 ratio

Further values, each from its own experiment
Parent: PafA, mature enzyme, eGFP fusion (Elizabethkingia meningoseptica, UniProt Q9KJX5); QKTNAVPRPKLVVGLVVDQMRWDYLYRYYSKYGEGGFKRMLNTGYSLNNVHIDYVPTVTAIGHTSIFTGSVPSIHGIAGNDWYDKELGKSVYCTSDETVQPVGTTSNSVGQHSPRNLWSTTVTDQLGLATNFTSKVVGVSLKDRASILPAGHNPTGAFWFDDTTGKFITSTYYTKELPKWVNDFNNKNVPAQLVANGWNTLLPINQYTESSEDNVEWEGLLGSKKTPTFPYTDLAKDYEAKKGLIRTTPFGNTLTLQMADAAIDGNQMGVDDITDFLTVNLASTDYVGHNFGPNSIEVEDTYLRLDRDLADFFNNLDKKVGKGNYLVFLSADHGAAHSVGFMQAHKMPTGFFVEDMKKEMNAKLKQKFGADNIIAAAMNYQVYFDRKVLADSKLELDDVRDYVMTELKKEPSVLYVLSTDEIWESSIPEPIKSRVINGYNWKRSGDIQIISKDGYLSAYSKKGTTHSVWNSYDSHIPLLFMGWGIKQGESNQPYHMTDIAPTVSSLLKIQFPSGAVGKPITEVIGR
L407G — oxyanion analog dissociation constant (vanadate, free oxyanion; microfluidic competitive inhibition; in vitro, cell-free expressed; not given, derived from inhibition constants, unchanged parent 676 nM; lower = stronger binding): 637 nM

For quick reference, copied from above (sample 3):
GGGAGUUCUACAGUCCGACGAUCCUGGACCUCAACUGUGACGGGCAGCUAGAUUUCCAAGAGUUUCUCAACCUCAUUGGUGGCUCCGCUACCGCGUGCCAUGAUUCUUUCAUCCAAACUUCCCAGAAGCGAAUCUAAUCCUCUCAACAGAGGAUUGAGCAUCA: 0.334 ratio
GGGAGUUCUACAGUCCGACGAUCCGGAACUGCCUAGUGGGCGAGAACCAUGUGGUGAAAGUGGCCGACUUUGGUUUAAGCCGACUGAUGACUGGAGAUACCUACACUGCUCAUGCUGGAGCCAAAUUUCCUAUUAAAUGGACACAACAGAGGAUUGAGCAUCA: 0.151 ratio
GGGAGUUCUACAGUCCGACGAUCUCCCAGCACUUUGAUAAAAAGUGUGGACUGGUUGCUUGUAUUUUCCUUAUUCUUUUUAAUCCGUUUUAUUAUGUAUGCUACCAUUCGAACUGAGAGUAUUCGGUGGCUAAUUCCAGGACACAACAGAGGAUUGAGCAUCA: 1.06 ratio
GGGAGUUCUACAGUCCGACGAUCAUUCAUUUUUAAUUUUAAUUUUAUUUUAUACAACGUGUAGACGGUUCCCUGUUCUCUGCAUUCCGAAGUAUACACAGUACAACUGUUAAUUCUGUAAGUAAUUUUUAUAAUUAUGAUGUACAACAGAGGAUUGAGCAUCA: 6.69 ratio
